Measurements gathered from unrelated publications.
Lines come from different studies, so protocols differ. Numbers after ± are the reported error.

| Structure (SMILES) | target or system | test | test system | conditions | quantity | value |
| --- | --- | --- | --- | --- | --- | --- |
| CCCCCC(C=O)=Cc1ccccc1 | cysteine peptide Ac-RFAACAA-COOH | DPRA RapidFire-MS/MS | – | 24 h, pH 7.5, added: 5.0 µM cysteine peptide | maximal peptide depletion | -105% |
| Cc1nc2cccc(OCC(C)(C)C(=O)NC(C)C)c2c(N)c1C(=O)O | – | – | female Sprague-Dawley rat, plasma | dietary, 60 mg/kg/day, day 7 | Cmax | 38.5 ng/mL |
| CC[C@H](C)[C@@H]1NC(=O)[C@H](Cc2ccc(O)cc2)NC(=O)[C@@H](N)CSSC[C@@H](C(=O)N2CCC[C@H]2C(=O)N[C@@H](CC(C)C)C(=O)NCC(N)=O)NC(=O)[C@H](CC(N)=O)NC(=O)[C@H](CCC(N)=O)NC1=O | – | ELISA | C57BL/6J male mice, wild type, plasma | intraperitoneal, 12 µg total | Cmax | 291 ± 42 pg/sample |
| OCCc1ccc(O)c(O)c1 | – | – | male C57BL/6J mice low-fat diet, plasma | oral, 200 mg/kg, after enzymatic deconjugation | Cmax | 0.055 ± 0.013 µM |
| CCCC[C@H](NC(C)=O)C(=O)N[C@H]1CCC(=O)NC[C@@H](C(=O)N[C@@H](Cc2c[nH]c3ccccc23)C(N)=O)NC(=O)[C@H](CCCNC(=N)N)NC(=O)[C@@H](Cc2ccccc2)NC(=O)[C@H](Cc2c[nH]cn2)NC1=O | – | – | CD Sprague-Dawley rat, female, plasma | subcutaneous, 5.0 mg/kg/day, day 1 | Cmax | 1080 ng/mL |
| COc1ccc(/N=C(\N)CC(O)c2cc3c(F)cc(F)cc3c3cc(C(F)(F)F)ccc23)cc1.Cl (stereo not drawn) | – | – | mouse, dried blood spot | oral, 3 mg/kg single dose | Cmax | 3.7 ng/mL |
| COc1cccc(-c2n[nH]c(SCc3ccccn3)n2)c1OC | – | – | Sprague-Dawley rat, both sexes, plasma | oral, diet, 30 mg/kg/day, day 90 | Cmax | 3160 ng/mL |
| CC(=O)N[C@@H](Cc1ccccc1)C(=O)N[C@H]1CCCNC(=O)[C@H](CCCNC(=N)N)NC(=O)[C@H](Cc2c[nH]c3ccccc23)NC(=O)[C@@H](CC2CCCCC2)NC(=O)[C@@H]2CCCN2C1=O | – | – | C57BL/6J mouse, plasma | intravenous, 1 mg/kg single dose | Cmax | 17400 ng/mL |
| COc1cccc2c1C(=O)c1c(O)c3c(c(O)c1C2=O)C[C@@](O)(C(=O)CO)C[C@@H]3O[C@H]1C[C@H](N)[C@H](O)[C@H](C)O1 | – | – | mouse, E0771 tumour-bearing, kidney | intravenous, 92 µmol/kg | Cmax | 339 µM |
| COc1cc(CCC(C)=O)ccc1O | – | – | male C57BL/6J mice low-fat diet, plasma | oral, 200 mg/kg, diet 8 weeks | Cmax | 54.7 ± 1.54 µM |
| Cc1cc(Nc2cc3ncccc3c(N[C@@H]3C[C@H]4CC[C@@H](C3)N4CCC#N)n2)n[nH]1 | – | – | pregnant rat, maternal plasma | oral, 100 mg/kg/day, gestation day 6 | Cmax | 5.99 ng/mL |
| OCc1ccccc1 | cysteine peptide Ac-RFAACAA-COOH | peptide depletion, DPRA RapidFire-MS/MS | – | 24 h, pH 7.5, room temperature, added: 5.0 µM cysteine peptide | IC50 | inactive |

Excerpt of the above:
| Structure (SMILES) | target or system | test | test system | conditions | quantity | value |
| --- | --- | --- | --- | --- | --- | --- |
| OCCc1ccc(O)c(O)c1 | – | – | male C57BL/6J mice low-fat diet, plasma | oral, 200 mg/kg, after enzymatic deconjugation | Cmax | 0.055 ± 0.013 µM |
